Experimental data gathered from unrelated publications.
Every numbered part comes from another study and shows a few of its results, in no order. Substitutions count along the parent as printed.

Sample 1 — technique: RNA Bind-n-Seq; form: RNA; medium: in vitro; tested at: 365 nM; reference: no-protein control; reading: higher = stronger binding
Target: RNA binding protein fox-1 homolog 2, RRM domain, GST-SBP tag (RBFOX2, Homo sapiens, UniProt O43251-10, residues 100-194)
Setting: natural RNA segment, single round, ends assumed
Residues (chain): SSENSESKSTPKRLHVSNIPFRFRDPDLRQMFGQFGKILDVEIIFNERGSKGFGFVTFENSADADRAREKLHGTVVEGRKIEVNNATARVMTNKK
Sequence	RBNS enrichment (R)
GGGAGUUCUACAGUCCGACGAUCGUCUAAGAUGGAUUAAACAAGUAUAAAAUAAAAUACAUUUAUAAAAUAAAAAGGAAAACAGACUUAAUUUUCUCCUAUGUUAAUUGACUUGUAUUAUAGUUGAAUCUAUGUGGAAUUCUCGGGUGCCAA	0.835
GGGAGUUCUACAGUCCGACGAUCAAGAAAGCCUGUCUGGAGAAGUGUGAUGCCCAAGAAGCACGGAAAGCUACGCCGGUGGAAUGUCAGUGUGCUGCUCUGUAGGGAACUGCAGAGCUUAGAGGACUGACUGCUGGAAUUCUCGGGUGCCAA	0.827
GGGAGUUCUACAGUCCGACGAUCCAAGUUCCCAUAAAGCAAACAGGGCUUCUACUUUGUCUGCUCGGUGACAGACAACCAAGUUUUCCUCCCAUUUUAAACAAUUACAGCUAAGCAAAACCAGGUUUAGAGGCUGGAAUUCUCGGGUGCCAA	0.293
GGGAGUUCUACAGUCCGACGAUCGAAGUCUCUAAUAUAUCAUUUGUCUUUUUUCCAGUGAGGUAAAAUAAGGCAUAAAUGCAGGUAAUUAUUCCCAGCUGACCUAAAGUCAAUAAAACAUUCUGUUUAAGUGUUGGAAUUCUCGGGUGCCAA	0.332
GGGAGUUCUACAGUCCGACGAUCCGAGGAUGUGUUGCCUGGGCACGGUGACUGCGGUUAUUCCUGGAGGUCGGCAGACAUGCCAACCUUGGGCUAUUUGAGCUGGAGAAGCUAUGUGAUGCUAGCCGGUGGCUUGGAAUUCUCGGGUGCCAA	0.599
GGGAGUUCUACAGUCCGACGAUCCAACAUUUAUCUGUAGCUAAGAUAUUUUCUCUUAAUAAUUACCUCCCAAAUGCUUUUAGUGAACCGACUGUAUUUUUCCGAGGUAUCUCGUGUACAUGGUACUUCUUUCUUGGAAUUCUCGGGUGCCAA	0.549
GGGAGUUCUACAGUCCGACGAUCGUGGAAGGUCAUUCCUGAGAAGUGGGGGCUUGUUUUAUGAAACCUUAAAGGCCAAACGGACUGUCCCAUUUUGGGGAUCAGGACAUCCCUGUCCUUAUCUCCUGUCAUAGUGGAAUUCUCGGGUGCCAA	0.311
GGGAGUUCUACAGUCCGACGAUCUGACUAAAUCCACACUUUCUUUAAAGAGAUGCAGAUGAAUUACUUUUCUGUUAAUAUAUAGAAAAAUACACAGGAGAACAUGCAGAUACAUGUAAAUAUCUACAUACAGGUGGAAUUCUCGGGUGCCAA	0.394
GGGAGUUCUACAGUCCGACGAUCGGCGGACAGGGUACUCACUGUGCCGACGUGAGCAGACACAGCCAGAGGCUCAAGUGCCCUUGCCGAGUGUCCCCACUGCUCUUGGGGAGGCCCCGGCACAGCCCUGCAGAUGGAAUUCUCGGGUGCCAA	0.306
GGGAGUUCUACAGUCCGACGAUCCUGUUUGCCCACCUUUUCCAGGUGUAAGAGGCAGAGAGCCUGGACAGCUUUCUCUCUCAGCCAUUGUUCACCCCACUUGAAAAUUCAAACAAGAAAACUUUGCUUCAAAGUGGAAUUCUCGGGUGCCAA	0.397
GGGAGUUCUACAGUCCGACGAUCCCUUCAUCGUAACAGCAGCGUGAAGUCCACAAUGGGCACCGUGACUGGGUGUUGGGCAUGGGGGCCCAUGGAGUCAAAAGGAAUGGAGAGAAGGGCUUUGUAAAUAGCAUUGGAAUUCUCGGGUGCCAA	1.12
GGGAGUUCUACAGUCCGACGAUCCCUGAGAAUGUAAAAUAGGGCAGUGCCCAGCUGGGGAGGUAGAGGAAAGUGCUAGAGUACAUGGUCCGUGUGUGGCCUAGCUCAUUCCAUGUCAGCAUUUGGUGUUACUCUGGAAUUCUCGGGUGCCAA	2.21

Sample 2 — technique: universal PBM; form: double-stranded DNA, one strand shown; medium: in vitro; tested at: not given; reading: higher = stronger binding
Target: Sal-like protein 4, full length isoform B (SALL4, Homo sapiens, UniProt Q9UJQ4-2, residues 1-616)
Setting: 8-mer, flanks averaged, mean of replicates
Sequence	E-score
CCTCCGCG	-0.346
AAGGGATT	0.0409
GAAAGCAC	-0.119
AAAGGGCA	0.0291
CGGTAACC	-0.282
TTACGTAA	0.22
ATATGCTC	0.204
ATTACGCG	0.152
CAATGTAA	0.212
GAAGGACC	-0.18
AGTGGAAG	-0.16
AGCGAAAT	0.136
CTTGCGAC	-0.148
CGGTGTTC	-0.225
CTCTGCCA	-0.153
CAACGATA	0.258
GAGTCCAC	-0.219
AATCGGAA	-0.00077
AGCGAGAA	0.0599
AACCAAAT	0.0378
AGCATGAT	0.0681

Sample 3 — technique: protein binding microarray; form: double-stranded DNA, one strand shown; medium: in vitro; tested at: not given; reference: not given; reading: higher = stronger binding
Target: Histone acetyltransferase KAT6A, winged helix 2, GST fusion (KAT6A, Homo sapiens, UniProt Q92794, residues 85-181)
Setting: 8-mer, flanks averaged, mean of 2 arrays, mostly near background
Target sequence (chain): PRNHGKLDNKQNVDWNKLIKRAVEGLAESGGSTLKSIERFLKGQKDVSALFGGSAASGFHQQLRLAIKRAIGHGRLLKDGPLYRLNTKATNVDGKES
Sequence	E-score
AGCGTGAT	-0.0581
AGACCTCT	-0.058
CAACGTTG	-0.0971
CTCCAACC	0.049
TAAAGAAA	0.16
CAACTGCG	0.0741
TATTGTAA	-0.0292
CGTCAACC	-0.158
GCATTGCA	0.0892
AACTTACT	-0.209
TTAATAAA	0.208
ATAGGATG	-0.173
CTGACATC	-0.0561
CCCTATCC	-0.0779
GCCATTGA	0.0238
CAGGTTTA	-0.143
CCCAGAAC	0.0152
CTATCAGA	-0.0215
ACATATCC	-0.0595
CCGTGTTA	-0.0271
ATAAGTAG	-0.0634
CCTTGTCA	0.000505

Sample 4 — technique: protein-binding microarray; form: double-stranded DNA, one strand shown; medium: in vitro; tested at: 0.8 µM; setting: whole 60-bp probe, no competitor; reading: higher = stronger binding
Target: Centromere-binding protein 1, full length, N-terminal tag (CBF1, Saccharomyces cerevisiae, UniProt P17106, residues 1-351)
Sequence of UniProt P17106 (whole entry, looked up): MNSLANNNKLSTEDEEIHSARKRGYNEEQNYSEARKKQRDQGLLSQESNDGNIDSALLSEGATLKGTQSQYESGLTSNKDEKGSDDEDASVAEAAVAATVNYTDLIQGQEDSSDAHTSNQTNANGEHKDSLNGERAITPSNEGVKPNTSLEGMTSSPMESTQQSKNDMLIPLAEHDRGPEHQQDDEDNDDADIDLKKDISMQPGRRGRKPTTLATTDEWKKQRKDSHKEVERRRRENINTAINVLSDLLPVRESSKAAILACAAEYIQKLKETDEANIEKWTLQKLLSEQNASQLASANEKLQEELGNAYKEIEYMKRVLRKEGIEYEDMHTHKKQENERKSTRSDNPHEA
Sequence	fluorescence intensity [a.u.]
GAACGGTTACAACGTCACGTCTTTTTCTGTTTATAGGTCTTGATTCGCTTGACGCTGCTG	683
GAATTACTGTGCAATCACATGTACAAGGCTCTCTAGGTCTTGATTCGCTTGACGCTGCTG	1640
CTAACAATGAGAGGAAAGGTGACTTTTTAAGGGTTCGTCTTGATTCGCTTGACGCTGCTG	543
GAAAAGCTGGCAGGTGACCCGCCGCACCTGCACTAGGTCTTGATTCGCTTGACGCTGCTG	4520
GAATAATAGTGGAATCAGGTGCCTAAATAAATGTAGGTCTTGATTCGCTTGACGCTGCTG	1480
CCTAACTACTATAATCACCAGTGATAGCTTCGTACAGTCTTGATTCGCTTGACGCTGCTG	523
GAAATACTGCGCTATCTCGTGCCCTCGTCTCTTTAGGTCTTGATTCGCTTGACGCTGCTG	606
TGTACGAAGCTATAGGTGATTACTATAGTAGTTAGGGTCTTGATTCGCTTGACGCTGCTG	543
CCTAACTACTATAGTCACATGACATAGCTTCGTACAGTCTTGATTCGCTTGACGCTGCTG	8480
TGTACGAAGCTATTCCATGTGCATATAGTAGTTAGGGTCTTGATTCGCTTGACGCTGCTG	558
GAATCTTATTTTTTTAACACCACCTCCTGAAAGTAGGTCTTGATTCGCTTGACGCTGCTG	533
CTACATTATTTTCGTCAGGCGTGATATCAGCGATTCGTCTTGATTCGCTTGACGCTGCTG	880
CTAATCCTTTCCTGTCACATGAAGAGAAAAAGGTTCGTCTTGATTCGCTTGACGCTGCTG	2550
CTAGTGCGAAGTGACCGCGTGGAAGGCCGGGTATTCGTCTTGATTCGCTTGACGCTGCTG	525
CTAGAATGCAAACGTGAGGTTGGCGCGCCCTCCTTCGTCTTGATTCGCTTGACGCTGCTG	532
GAAAATTTCAGTTTCCCCGTGGCAAGTGATAGTTAGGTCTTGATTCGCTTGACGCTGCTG	587
GAAAGTAAGAATGCACAGGTGACTAGTGGTTATTAGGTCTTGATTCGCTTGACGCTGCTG	832
CTACTACAATTCATTGTCATGATGTACATAGAATTCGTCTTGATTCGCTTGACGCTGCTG	549
CCTAACTACTATAGCCATCACAGATAGCTTCGTACAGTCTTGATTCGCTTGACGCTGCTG	513
GAATAAAAAAGAAAACGCGTGCTATCGCGTAACTAGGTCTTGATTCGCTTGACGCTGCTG	564
CTAAGCTCTGTGGTTCACGTTCAATGTAGTGTTTTCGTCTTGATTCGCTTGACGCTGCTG	529
GAACCACTTTTTATTTTTGTCACGTAGTGCACTTAGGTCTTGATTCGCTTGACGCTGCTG	812
GAAAACCCTGTTATTGACATCAGAAAACAACAGTAGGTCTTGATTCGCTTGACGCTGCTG	594
CTACCACTTGGGCGTCGGGTGGTGAATCTAATGTTCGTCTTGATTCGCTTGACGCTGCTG	474
GAAATCGTGACACTGCTGATGGTTTTGTCATTCTAGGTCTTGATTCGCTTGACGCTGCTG	540

Sample 5 — target: CCND3, cyclin fold, Cln2 fusion (human); technique: yeast growth competition, sequencing; medium: yeast; setting: weak parent motif; reference: not given; reading: higher = stronger binding
Starting sequence: BRCA2 docking peptide (human); PSIKRNLLNEFDR; partner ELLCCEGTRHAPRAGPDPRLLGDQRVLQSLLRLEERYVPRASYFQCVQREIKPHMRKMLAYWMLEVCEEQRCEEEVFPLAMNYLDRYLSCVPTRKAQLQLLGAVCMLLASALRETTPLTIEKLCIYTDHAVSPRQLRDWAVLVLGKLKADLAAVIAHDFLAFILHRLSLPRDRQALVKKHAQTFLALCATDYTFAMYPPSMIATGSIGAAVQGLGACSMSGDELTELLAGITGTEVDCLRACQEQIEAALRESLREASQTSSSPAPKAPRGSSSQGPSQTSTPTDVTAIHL
Change	normalised enrichment score
PSIKRNLLNEFDQ [R13Q]	0.147
PSIKRNLCNEFDR [L8C]	0.088
SSIKRNLLNEFDR [P1S]	0.104
ISIKRNLLNEFDR [P1I]	0.108
PSIKKNLLNEFDR [R5K]	0.191
PSIKRNLLNEKDR [F11K]	0.139
PSGKRNLLNEFDR [I3G]	0.191
PSIKRNLLNSFDR [E10S]	0.104
PSIKRNDLNEFDR [L7D]	0.0498
PSFKRNLLNEFDR [I3F]	0.0557
PSIKRNLGNEFDR [L8G]	0.0617
PSIKRNLLKEFDR [N9K]	0.242
PSIKRNLLNEFSR [D12S]	0.242
PSIDRNLLNEFDR [K4D]	0.0812
PSIKRNLLNEFAR [D12A]	0.235
ASIKRNLLNEFDR [P1A]	0.0946
PSIKRNLLGEFDR [N9G]	0.17
PSNKRNLLNEFDR [I3N]	0.0857
PSEKRNLLNEFDR [I3E]	0.126
PSIKRNLLNEFPR [D12P]	0.192

For quick reference, copied from above (sample 4):
Sequence	fluorescence intensity [a.u.]
GAATTACTGTGCAATCACATGTACAAGGCTCTCTAGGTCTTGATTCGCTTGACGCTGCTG	1640
CTAACAATGAGAGGAAAGGTGACTTTTTAAGGGTTCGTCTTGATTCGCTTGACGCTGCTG	543
GAAAAGCTGGCAGGTGACCCGCCGCACCTGCACTAGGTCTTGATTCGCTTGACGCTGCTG	4520
GAATAATAGTGGAATCAGGTGCCTAAATAAATGTAGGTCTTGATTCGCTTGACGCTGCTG	1480
CCTAACTACTATAATCACCAGTGATAGCTTCGTACAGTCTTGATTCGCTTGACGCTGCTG	523
GAAATACTGCGCTATCTCGTGCCCTCGTCTCTTTAGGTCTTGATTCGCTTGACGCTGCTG	606
TGTACGAAGCTATAGGTGATTACTATAGTAGTTAGGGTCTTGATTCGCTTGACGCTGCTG	543
CCTAACTACTATAGTCACATGACATAGCTTCGTACAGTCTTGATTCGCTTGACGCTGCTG	8480
TGTACGAAGCTATTCCATGTGCATATAGTAGTTAGGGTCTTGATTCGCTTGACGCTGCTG	558
GAATCTTATTTTTTTAACACCACCTCCTGAAAGTAGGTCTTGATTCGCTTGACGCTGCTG	533
